Results gathered from unrelated publications.
Every numbered part comes from another study and shows a few of its results, in no order. Positions count from the first letter of the parent shown.

Sample 1 — target: CREB3L3, bZIP domain (human); technique: DHFR protein complementation; matrix: yeast; baseline: wild-type JUN-FOS pair; direction: higher = stronger binding
Setting: single substitutions, most at no-binding floor
Starting sequence: JUN, bZIP domain (human); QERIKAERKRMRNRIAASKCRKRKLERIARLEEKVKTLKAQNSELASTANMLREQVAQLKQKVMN; partner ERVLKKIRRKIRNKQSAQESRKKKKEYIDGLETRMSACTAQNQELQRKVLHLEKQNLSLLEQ
Substitution	binding fitness [natural log]
A57E	-1.55
E44F	-1.32
L31Y	-1.53
A46S	-1.5
S43A	-1.35
A46D	-1.52
E33G	-1.46
A29L	-1.44
N42S	-1.48
E32D	-1.29
K34G	-1.34
M51Q	-1.54
L38G	-1.49
S47P	-1.54
I28P	-1.41
L52G	-1.51
R53C	-1.24
V35L	-1.55
T48Y	-1.62
Q55H	-1.46
K36E	-1.31
T48I	-1.53
N42I	-1.4
A46R	-1.39

Sample 2 — technique: protein-binding microarray; form: double-stranded DNA, one strand shown; matrix: in vitro; concentration: not given; direction: higher = stronger binding
Target: Max dimerization protein 1, bHLH-zipper, MAX partner unstated (MXD1, Homo sapiens, UniProt Q05195, residues 56-136)
Setting: k-mer, scored over probes, only values ≥0.25
Residues (chain): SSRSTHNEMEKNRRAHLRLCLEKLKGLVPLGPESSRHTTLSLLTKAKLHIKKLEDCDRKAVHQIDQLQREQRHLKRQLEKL
Sequence	E-score
GTGGCACA	0.257
CATGTGCA	0.471
CTGCATGC	0.305
AAAACACA	0.26
CATGCACG	0.427
GTGGCAGA	0.293
CATGCTGC	0.387
CAATGCGG	0.252
GCAGTACC	0.265
CTCACCCC	0.311
ACTCCACG	0.335
AACTCGTG	0.403
CACACGGG	0.302
ATATGCAC	0.251
ACATGACT	0.312

Sample 3 — target: CCNB3, cyclin fold, Cln2 fusion (human); technique: yeast growth competition, sequencing; matrix: yeast; setting: weak parent motif; baseline: not given; direction: higher = stronger binding
Starting sequence: PKN2 docking peptide (human); DSTVTKLDFDLEP; partner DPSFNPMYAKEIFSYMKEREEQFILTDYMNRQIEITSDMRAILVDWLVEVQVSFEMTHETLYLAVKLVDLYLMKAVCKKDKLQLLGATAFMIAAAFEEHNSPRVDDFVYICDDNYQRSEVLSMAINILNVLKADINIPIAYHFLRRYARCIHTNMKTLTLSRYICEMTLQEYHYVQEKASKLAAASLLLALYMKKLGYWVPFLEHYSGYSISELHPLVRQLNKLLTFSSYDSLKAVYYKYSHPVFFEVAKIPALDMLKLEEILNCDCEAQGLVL
Substitution	normalised enrichment score
DSTVTKLDADLEP [F9A]	-0.201
DATVTKLDFDLEP [S2A]	-0.238
DSTVTKLAFDLEP [D8A]	-0.125
DSTVTKADFDLEP [L7A]	0.0766
DSTVTKLDFDLEA [P13A]	0.0131
DSTVTKLDFALEP [D10A]	-0.157
DSTVTKLDFDLAP [E12A]	-0.227

Sample 4 — technique: universal PBM; form: double-stranded DNA, one strand shown; matrix: in vitro; concentration: not given; direction: higher = stronger binding
Target: Sal-like protein 4, full length isoform B (SALL4, Homo sapiens, UniProt Q9UJQ4-2, residues 1-616)
Setting: 8-mer, flanks averaged, mean of replicates
Sequence	E-score
GTTGTGAA	0.178
CAGGTCGC	-0.0818
GTCGGTTA	-0.0137
TCCGTAAA	0.0316
GGATGCTA	-0.136
AACGTTGT	0.176
ATGAATTG	0.238
GCCGTCAA	-0.213
ATTGTGTA	0.199
AGAAGTTG	-0.0894
CTGGTATA	-0.0371
ACAGCCCC	-0.274
GGTGACAC	-0.186
CTTGTGAC	-0.0957
CGAGCTTC	-0.0961
CAAGTAGA	-0.069
ACTCCGTA	-0.105
CACCACTA	0.0414
ATGCTACA	0.136
ACAGCAAA	0.183
GCGGACCC	-0.325
TACCGTCA	-0.108
CGCAATAG	-0.0272
ATACACTG	0.154
CCTTCAGA	-0.0885

Sample 5 — technique: aptamer microarray, sandwich; form: DNA with 2'F-ANA; matrix: in vitro; concentration: 200 nM; with: Cy3 exosite-II aptamer, 400 nM; direction: higher = stronger binding; sequence: GGTTGGTGTGGTTGG
Target: Prothrombin, mature alpha-thrombin (F2, Homo sapiens, UniProt P00734)
Setting: whole 15-mer aptamer, many near background
Modification	mean fluorescence intensity
2'F-ANA at 1 6 7 9 10 11 12 14 15	51 a.u.
2'F-ANA at 1 2 6 8 13	125 a.u.
2'F-ANA at 3 4 5 6 9 10 11 14 15	55.2 a.u.
2'F-ANA at 3 9 11 13 15	880 a.u.
2'F-ANA at 1 2 3 4 7 8 11 12 13 15	267 a.u.
2'F-ANA at 1 4 6 8 9 10 14	47.7 a.u.
2'F-ANA at 1 5 7 8 9 11 15	53.8 a.u.
2'F-ANA at 1 2 7 8 10 11 12	78.5 a.u.
2'F-ANA at 2 6 8 12 13 15	599 a.u.
2'F-ANA at 2 4 10 11 12 15	120 a.u.
2'F-ANA at 1 2 4 8 9 13	85.3 a.u.
2'F-ANA at 1 2 4 5 6 8 11 12 13 14	47.7 a.u.
2'F-ANA at 1 2 3 5 9 10 12 14 15	46.1 a.u.
2'F-ANA at 1 3 4 8 9 11 14 15	62.9 a.u.
2'F-ANA at 1 2 4 5 6 7 9 10 11 13 14 15	52.3 a.u.
2'F-ANA at 4 10 12 13 15	85.9 a.u.
2'F-ANA at 3 11 12 13 15	1210 a.u.
2'F-ANA at 2 4 6 8 9 11 13	157 a.u.
2'F-ANA at 3 5 6 13 14 15	50.1 a.u.

Sample 6 — technique: DHFR PCA, deep sequencing; matrix: yeast; with: (+)-ABA 0.11 µM; baseline: wild-type fitted maximum; direction: higher = stronger binding
Target: ABI1, truncated, D143A, DHFR fusion (Arabidopsis thaliana)
Setting: methotrexate growth selection, single substitutions
Starting sequence: PYL1, truncated, DHFR fusion (Arabidopsis thaliana); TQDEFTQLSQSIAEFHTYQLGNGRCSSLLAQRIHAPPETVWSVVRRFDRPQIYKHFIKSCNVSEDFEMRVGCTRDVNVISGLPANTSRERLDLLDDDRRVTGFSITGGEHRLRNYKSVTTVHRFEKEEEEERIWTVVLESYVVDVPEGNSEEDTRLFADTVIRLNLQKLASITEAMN
Substitution	relative binding score [%]
G81V	3.12
Y18K	-1.82
E67N	20
P36L	16.4
R132N	51.2
S27D	4.89
R45I	-4.06
D92T	-4.65
E89I	-5.34
R88E	14.9
D92W	2.08

Sample 7 — technique: protein-binding microarray; form: double-stranded DNA, one strand shown; matrix: in vitro; concentration: 0.8 µM; setting: whole 60-bp probe, no competitor; direction: higher = stronger binding
Target: Centromere-binding protein 1, full length, N-terminal tag (CBF1, Saccharomyces cerevisiae, UniProt P17106, residues 1-351)
Sequence of UniProt P17106 (whole entry, looked up): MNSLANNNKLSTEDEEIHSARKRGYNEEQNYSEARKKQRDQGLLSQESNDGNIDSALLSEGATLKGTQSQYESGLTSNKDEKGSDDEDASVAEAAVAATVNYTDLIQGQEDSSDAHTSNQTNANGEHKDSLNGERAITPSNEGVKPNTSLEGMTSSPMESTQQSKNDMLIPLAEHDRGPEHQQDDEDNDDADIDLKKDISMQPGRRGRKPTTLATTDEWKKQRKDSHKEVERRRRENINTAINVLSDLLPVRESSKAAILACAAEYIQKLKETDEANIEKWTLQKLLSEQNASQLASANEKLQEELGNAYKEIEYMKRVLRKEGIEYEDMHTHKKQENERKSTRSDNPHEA
Sequence	fluorescence intensity [a.u.]
GAACCAAAAACGGACGTCACAAATTACTGCTTTTAGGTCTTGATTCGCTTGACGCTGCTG	518
CCTAACTACTATAGTGATGCGCCATAGCTTCGTACAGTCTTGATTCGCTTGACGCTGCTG	498
GAAATGAATGAAGAGCTCATGCACAGGCATGTATAGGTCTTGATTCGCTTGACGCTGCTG	507
CTATCATTGAAAATTCACGTGATCGCAATATTCTTCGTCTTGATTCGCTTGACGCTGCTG	15600
CTAATGTACAATGAGAACGTGTAACGATCCAATTTCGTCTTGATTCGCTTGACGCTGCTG	552
GAAGGTGAATTGAATCATGTGCCAAGGTTTTGTTAGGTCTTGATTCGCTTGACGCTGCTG	1690
CTATTTTAATTACATCGTGACAACGGTTTCCTATTCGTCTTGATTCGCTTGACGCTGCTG	809
GAATTATACATCTGTCACGTAAACCATTGAAAATAGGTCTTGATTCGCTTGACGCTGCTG	632
GAAGTCTATAGTGCAAACGTGATCAATGTAAAGTAGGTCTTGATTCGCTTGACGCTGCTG	2380
GAAGTGCTACCCGCGCACGTGATTAAAAGGAAATAGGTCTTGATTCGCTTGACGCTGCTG	14400
CTATTGTTATATCATGTGAGCACAACTGTCGTTTTCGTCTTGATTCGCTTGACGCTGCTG	2030
TGTACGAAGCTATGGCACGCGATTATAGTAGTTAGGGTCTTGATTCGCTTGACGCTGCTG	613
CTAACCAGCAAATTTAACATCATGCCGGCATTGTTCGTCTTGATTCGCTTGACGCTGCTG	551
GAAGCAATTTGAGATCAGGTGCCCAAGAACTCGTAGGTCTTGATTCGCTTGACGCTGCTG	3800
CTATTGCCATTCTTAAACGTGGCCTACAAGAACTTCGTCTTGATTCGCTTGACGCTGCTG	545
CTAATCTGTGCCCATGTGATCTGTACCTTTTTTTTCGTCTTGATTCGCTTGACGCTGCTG	2800
CTAACGACTATTTATCACGTCTTGGCTTAGCTATTCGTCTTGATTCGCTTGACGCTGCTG	569
TGTACGAAGCTATTACATGTGGGTATAGTAGTTAGGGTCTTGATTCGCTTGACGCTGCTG	560
CTATTCAACAAACGTGATGTTGTATATGCCTGATTCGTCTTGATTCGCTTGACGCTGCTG	1360
GAATAATCCTTTACATGTGAGACACTTTTCCGATAGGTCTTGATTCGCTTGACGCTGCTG	749
GAATAAATGCTGCCAAAGGTGATGCGGTTTTGTTAGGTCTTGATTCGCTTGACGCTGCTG	525
GAAGGTGAAGTATAAGACGTGGTTGCAGCATCCTAGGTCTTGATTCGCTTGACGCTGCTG	497
GAAGAGGACAGCGACACGTGCATTCATGGTAGTTAGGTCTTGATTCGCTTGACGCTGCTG	4800
GAATAAATCGTATGTTACGTGTATGCAAGTCGCTAGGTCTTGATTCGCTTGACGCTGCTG	513
CTAATACGTCTTAATTACGTGAAGCCGACAATTTTCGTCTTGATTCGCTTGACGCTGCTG	545

Other studies, line by line
Substance	target	assay	system	setting	scale	endpoint	value
PhoQ, residues 284 288 289 292 302 303 SASVAL	PhoP, residues 12 14 15 18 19 TPLRH (Escherichia coli, UniProt P23836)	Sort-seq, refers to: YFP reporter	E. coli	PhoQ-PhoP variant library, with: 10 µM Mg2+	baseline: high Mg2+ state, higher = stronger signaling	fold induction	0.921

A few entries again (sample 2):
Sequence	E-score
ACATGACT	0.312
AACTCGTG	0.403
AAAACACA	0.26
CATGCTGC	0.387
CTCACCCC	0.311
CATGTGCA	0.471
GTGGCAGA	0.293
ATATGCAC	0.251
ACTCCACG	0.335
CAATGCGG	0.252
CTGCATGC	0.305
CACACGGG	0.302
GCAGTACC	0.265
CATGCACG	0.427
GTGGCACA	0.257
